# Experimental data gathered from unrelated publications.
# ± gives the spread as reported.
SMILES,assay,test system,conditions,measurement,result
CC(C)[C@H](NC(=O)CNC(=O)[C@H](CCC(N)=O)NC(=O)[C@H](C)N)C(=O)O,,human,"single dose, 1 mg/kg",possibly related adverse events,16.7%
CSCC[C@@H]1NC(=O)[C@@H]2CSSC[C@H](NC(=O)[C@H](CO)NC(=O)[C@H](C)N)C(=O)N[C@@H](CCCNC(=N)N)C(=O)N[C@@H]([C@@H](C)O)C(=O)N3CCC[C@H]3C(=O)N[C@@H](CCCCN)C(=O)N[C@@H](CC(=O)O)C(=O)N[C@H]3CSSC[C@H](NC(=O)[C@H](CCCCN)NC(=O)[C@H](CCCNC(=N)N)NC(=O)[C@H](CC(N)=O)NC1=O)C(=O)N[C@@H](CCCCN)C(=O)N[C@H]1CSSC[C@H](NC(=O)[C@@H]4CCCN4C(=O)[C@H](CC(=O)O)NC(=O)[C@H](C)NC3=O)C(=O)N[C@@H](C)C(=O)N[C@@H](CCCCN)C(=O)N[C@@H](CCC(=O)O)C(=O)N[C@@H]([C@@H](C)O)C(=O)NCC(=O)N[C@@H](CSSC[C@@H](C(N)=O)NC(=O)[C@H](CCCNC(=N)N)NC(=O)[C@H](CC(N)=O)NC1=O)C(=O)N1CCC[C@H]1C(=O)N[C@@H](Cc1ccc(O)cc1)C(=O)NCC(=O)N[C@@H](CCCCN)C(=O)N2,,"DA rat pristane-induced arthritis, serum","subcutaneous, 0.1 mg/kg once weekly, 21 days",Glucose,121 mg/dL
CCCCCCCC(=O)OC[C@H](NC(=O)[C@H](CO)NC(=O)CN)C(=O)N[C@@H](Cc1ccccc1)C(=O)N[C@@H](CC(C)C)C(=O)N[C@@H](CO)C(=O)N1CCC[C@H]1C(=O)N[C@@H](CCC(=O)O)C(=O)N[C@@H](Cc1cnc[nH]1)C(=O)N[C@@H](CCC(N)=O)C(=O)N[C@@H](CCCNC(=N)N)C(=O)N[C@H](C(=O)N[C@@H](CCC(N)=O)C(=O)N[C@@H](CCC(N)=O)C(=O)N[C@@H](CCCNC(=N)N)C(=O)N[C@@H](CCCCN)C(=O)N[C@@H](CCC(=O)O)C(=O)N[C@@H](CO)C(=O)N[C@@H](CCCCN)C(=O)N[C@@H](CCCCN)C(=O)N1CCC[C@H]1C(=O)N1CCC[C@H]1C(=O)N[C@@H](C)C(=O)N[C@@H](CCCCN)C(=O)N[C@@H](CC(C)C)C(=O)N[C@@H](CCC(N)=O)C(=O)N1CCC[C@H]1C(=O)N[C@@H](CCCNC(=N)N)C(=O)O)C(C)C,,"human, both sexes, plasma","intravenous infusion, 3 µg/kg/h, 65 min infusion",volume of distribution,0.079 ± 0.024 L/kg
Cc1cc(Oc2nc(N3CC[C@@H](c4ccncc4)C3)ncc2F)[nH]n1,,"BALB/c mice, female","s.c., 1500 mg/kg, 28 days, long-acting injectable",tolerability,not toxic
CSCC[C@H](NC(=O)[C@H](CC(N)=O)NC(=O)[C@@H](N)Cc1ccccc1)C(=O)N[C@@H](CCC(N)=O)C(=O)N[C@@H](C)C(=O)N[C@@H](CCC(N)=O)C(=O)N[C@@H](CCCNC(=N)N)C(=O)N[C@@H](CCCNC(=N)N)C(=O)N[C@@H](Cc1ccccc1)C(=O)N[C@@H](Cc1ccc(O)cc1)C(=O)N[C@@H](CCC(=O)O)C(=O)N[C@@H](C)C(=O)N[C@@H](CC(C)C)C(=O)N[C@@H](Cc1c[nH]cn1)C(=O)N[C@@H](CC(=O)O)C(=O)NCC(=O)NCC(=O)NCC(=O)NCC(=O)N[C@@H](CO)C(=O)N[C@@H](C)C(=O)N[C@@H](CCC(=O)O)C(=O)N[C@@H](C)C(=O)N[C@@H](CCC(=O)O)C(=O)N[C@@H](C)C(=O)N[C@@H](CCCCN)C(=O)N[C@@H](C)C(=O)N[C@@H](CCCCN)C(=O)N[C@@H](C)C(=O)N[C@@H](CCC(=O)O)C(=O)N[C@@H](C)C(=O)N[C@@H](CCC(=O)O)C(=O)N[C@@H](C)C(=O)N[C@@H](CCCCN)C(=O)N[C@@H](C)C(=O)N[C@@H](CCCCN)C(=O)O,,EAK peptide fibrils,"overnight, 37 °C, PBS, added: EAK to compound ratio 1:1",incorporation into fibrils,12%
CN(C)C(CNC(=O)Nc1cc(C(F)(F)F)ccc1N1CCOCC1)c1ccncc1 (centres unmarked),,"mouse, serum","intraperitoneal, 180 mg/kg single dose",serum total bilirubin,0.2 mg/dL
[11CH3]n1c(=O)n(CCCO)c(=O)c2c1nc(Oc1cccc(OC(F)(F)F)c1)n2Cc1ccc(Cl)cc1,ex vivo biodistribution,"Sprague Dawley rat, pancreas",30 min post injection,tracer uptake,1.49 ± 0.04 %ID/g
CC[C@H](C)C(=O)N1CCC(NC(=O)Nc2ccc(OC(F)(F)F)c(F)c2)CC1,,"human, plasma","oral, 24 mg, single dose, healthy volunteers",Cmax,301 ng/mL

# Repeated from above:
SMILES,assay,test system,conditions,measurement,result
CN(C)C(CNC(=O)Nc1cc(C(F)(F)F)ccc1N1CCOCC1)c1ccncc1 (centres unmarked),,"mouse, serum","intraperitoneal, 180 mg/kg single dose",serum total bilirubin,0.2 mg/dL
